Experimental data collected from several papers.
Protocols differ between the studies behind these lines. ± marks the error that the study gave. In brackets after ≈: the same amount, converted by molar mass.
rep main protease: Replicase polyprotein 1ab, main protease (rep, Severe acute respiratory syndrome coronavirus 2, UniProt P0DTD1)

OC1(CN2CCN(C(c3ccc(F)cc3)c3ccc(F)cc3)CC2)CCCNC1 (centres unmarked) — remaining activity (Lassa mammarenavirus; viral replication; Huh-7; 10 µM, 72 h): 32%
O=C(NO)c1ccc(C2=Nc3ccccc3Oc3ccccc32)cc1 — EC50 (SARS-CoV-2; viral replication, GFP plate reader screen; BetaCov/Belgium/GHB-03021/2020; cell-based): > 100 µM
CNC(=O)[C@@H](NC(=O)[C@H](CC(C)C)[C@H](O)C(=O)NO)C(C)(C)C — viability difference (Daboia russelii; C2C12; 100 µM, with: Daboia russelii venom PB; reference: venom alone): -18.7%
OCCN1CCN(CC/C=C2/c3ccccc3Sc3ccc(Cl)cc32)CC1 — EC50 (SARS-CoV-2; viral replication, high-content imaging screen; BetaCov/Belgium/GHB-03021/2020; cell-based): > 100 µM
O=C(Nc1nc(-c2ccccc2)cs1)C1CCCC1 — MIC (Histoplasma capsulatum; microbial growth): > 20 µM
Cc1ccc(Nc2ccnc(N3CCC(C(=O)NCCCc4ccccc4)CC3)n2)cc1 — maximum response (SARS-CoV-2; cytopathic effect; USA_WA1/2020; round 2, 5-point): 50%
CS(=O)(=O)NCC1CCOC2(CCN(C(=O)C3(c4ccccc4)CCCC3)CC2)C1 (centres unmarked) — EC50 (Venezuelan equine encephalitis virus; viral replication): 7.94 µM
CC(C)(C)NC(=O)[C@@H]1C[C@@H]2CCCC[C@@H]2CN1C[C@@H](O)[C@H](Cc1ccccc1)NC(=O)[C@H](CC(N)=O)NC(=O)c1ccc2ccccc2n1 — EC50 (SARS-CoV-2; viral replication, GFP plate reader screen; cell-based): > 100 µM
CC[C@H](C)[C@H](NC(=O)[C@H](CC(C)C)NC(=O)[C@H](Cc1c[nH]c2ccccc12)NC(=O)[C@H](CCC(N)=O)NC(=O)[C@@H](NC(=O)[C@H](Cc1ccccc1)NC(=O)[C@H](C)NC(=O)[C@H](CCCCNC(=O)COCCOCCNC(=O)COCCOCCNC(=O)CC[C@H](NC(=O)CCCCCCCCCCCCCCCCCCC(=O)O)C(=O)O)NC(=O)[C@H](CCC(N)=O)NC(=O)[C@H](C)NC(=O)[C@@H](NC(=O)[C@H](CCCCN)NC(=O)[C@H](CC(=O)O)NC(=O)[C@H](CC(C)C)NC(=O)C(C)(C)NC(=O)[C@@H](NC(=O)[C@H](CO)NC(=O)[C@H](Cc1ccc(O)cc1)NC(=O)[C@H](CC(=O)O)NC(=O)[C@H](CO)NC(=O)[C@@H](NC(=O)[C@H](Cc1ccccc1)NC(=O)[C@@H](NC(=O)CNC(=O)[C@H](CCC(=O)O)NC(=O)C(C)(C)NC(=O)[C@@H](N)Cc1ccc(O)cc1)[C@@H](C)O)[C@@H](C)O)[C@@H](C)CC)[C@@H](C)CC)C(C)C)C(=O)N[C@@H](C)C(=O)NCC(=O)NCC(=O)N1CCC[C@H]1C(=O)N[C@@H](CO)C(=O)N[C@@H](CO)C(=O)NCC(=O)N[C@@H](C)C(=O)N1CCC[C@H]1C(=O)N1CCC[C@H]1C(=O)N1CCC[C@H]1C(=O)N[C@@H](CO)C(N)=O — subjects with back pain (healthy subjects; all MAD doses): 14.3%
COc1ccccc1-c1ccc(CN2CCCC(c3nc4ccc(C)cc4c(=O)[nH]3)C2)cc1 (centres unmarked) — maximum response (SARS-CoV-2; cytopathic effect; USA_WA1/2020; round 1, 5-point): 89.2%
O=C(Nc1ncc(CC2CCCCC2)s1)c1ccccc1 — MIC (Histoplasma capsulatum; microbial growth): 10 µM (≈ 3 µg/mL)
CCCCCCCCCCCCCCNC(=O)CP(=O)(O)O — MIC90 (Bacillus anthracis; Ames/FL): 0.78 µg/mL (≈ 2.33 µM)
CN(C)CCOC(C)(c1ccccc1)c1ccccn1 (centres unmarked) — selectivity index (Ebola virus Zaire; pseudovirus entry; A549; reference: CC50 over IC50): > 7
Cc1nc2n(n1)CC(=O)N[C@@H](C(C)C)CN(C(=O)C1(C)CC1)CC(=O)N[C@@H](CC(C)C)c1nc(cs1)C(=O)N[C@H]2Cc1ccccc1 — remaining activity (Lassa mammarenavirus; viral replication; Huh-7; 10 µM, 72 h): 99%
NC(=O)c1ncn([C@@H]2O[C@H](CO)[C@@H](O)[C@H]2O)n1 — IC90 (Mammarenavirus lassaense; viral replication; Vero; 48 h): 14 µg/mL
CCc1c(C(=O)C(N)=O)c2c(OCC(=O)O)cccc2n1Cc1ccccc1 — time of death (Daboia russelii; mouse; intravenous, 120 µg, up to 24 h, given 0 min after venom, with: northern venom intraperitoneal): > 24 h
O=C(NC1CCCCC1)C(c1cccs1)N(Cc1ccc2c(c1)OCO2)C(=O)Cc1c[nH]c2ccccc12 (centres unmarked) — IC90 (Rickettsia canadensis; bacterial growth; Vero): 11 µM
CNCCN(C)c1nc(NC(C)c2ccccc2)c2ccccc2n1 (centres unmarked) — AC50 (SARS-CoV-2; cytopathic effect; USA_WA1/2020): 6.31 µM
COc1cc(/C=C/C(=O)CC(=O)/C=C/c2ccc(O)c(OC)c2)ccc1O — EC50 (SARS-CoV-2; viral replication, GFP plate reader screen; cell-based): > 100 µM
CNC(=NCCSCc1csc(N=C(N)N)n1)NC#N — selectivity index (Marburg virus; pseudovirus entry; A549; reference: CC50 over IC50): 1
Cc1cccc(C2(C(=O)N3CCC4(CC3)CC(CNS(=O)(=O)N(C)C)CCO4)CCCC2)c1 (centres unmarked) — EC50 (Venezuelan equine encephalitis virus; viral replication): 12.6 µM
O=C(Nc1cccc(Cl)c1)C1CCCN(Cc2cccc(-c3ccc(F)cc3F)c2)C1 (centres unmarked) — AC50 (SARS-CoV-2; cytopathic effect, cell-based CPE; USA_WA1/2020; round 1, 5-point dilution): 12.6 µM
COc1ccc(C[C@@H]2c3cc(Oc4cc(C[C@@H]5c6cc(O)c(OC)cc6CCN5C)ccc4O)c(OC)cc3CCN2C)cc1 — CPE inhibition (SARS-CoV-2; viral replication; Vero E6; 12.5 µM): 0%
CC(C)N1CCC(NC(=O)c2ccc(Cl)cc2Cl)CC1 — effective antiviral concentration (influenza A virus H5N1 A/Vietnam/1203/04): 5 µM
O=C(O)CCC(=O)C(=O)O — inhibition (rep main protease; reporter gene (mKate2), inhibitor; 20 µM): -0.263%
O=C(Nc1ccc(N2CCN(C(=O)c3cnccn3)CC2)nc1)c1ccccc1I — IC90 (Mycobacterium tuberculosis; bacterial growth; H37Ra-lux; 168 h): > 64 µM
Cc1cccc(CN2CCN(C(c3ccccc3)c3ccc(Cl)cc3)CC2)c1 (centres unmarked) — selectivity index (Marburg virus; pseudovirus entry; A549; reference: CC50 over IC50): 6
CCOc1ccc(C(=O)Nc2ccc(N3CCCN(C(=O)c4cnccn4)CC3)nc2)cc1 — IC90 (Mycobacterium tuberculosis; bacterial growth; H37Ra-lux; 168 h): > 64 µM
c1ccc(C(c2ccccc2)N2CCN(CCCC3(c4ccccc4)OCCO3)CC2)cc1 — EC50 (SARS-CoV-2; viral replication, high-content imaging screen; cell-based): 10 µM
CC(C)=CCc1c(O)ccc(C(=O)/C=C/c2ccc(O)cc2)c1O — inhibition (SARS-CoV-2; cytopathic effect; Vero E6; 3.125 µM, first run): 0%
Cc1cccc(CN2CC(=O)N[C@@H](CC(C)C)c3nc(cs3)C(=O)N[C@@H](Cc3ccccc3)c3nc(C)nn3CC(=O)N[C@@H](C(C)C)C2)n1 — remaining activity (Lassa mammarenavirus; viral replication; Huh-7; 10 µM, 72 h): 85%
O=C1c2c(O)c(=O)ccn2N([C@@H]2c3ccccc3SCc3c2ccc(F)c3F)[C@@H]2COCCN12 — EC50 (Influenza A virus; viral replication; A(H5N6) A/falcon/Hong Kong/4955/2015; mean): 0.00034 ± 4e-05 µM
CC(C)C[C@@H]1NC(=O)c2coc(n2)[C@H](Cc2ccccc2)NC(=O)CN(C(=O)CN(C)C2CCCC2)CCNC(=O)c2csc1n2 — remaining activity (Lassa mammarenavirus; viral replication; Huh-7; 10 µM, 72 h): 52%
Cn1c(=O)ccc2ccc(F)c(CCNC[C@H]3CN(c4cnc5c(n4)NC(=O)CO5)C(=O)O3)c21 — MIC90 (Ralstonia pickettii): 0.06 µg/mL (≈ 0.128 µM)
COC(=O)[C@@H](N)COP1(=O)CO[C@@H](Cn2cnc3c(N)ncnc32)CO1 (some centres unmarked) — IC50 (vaccinia virus; viral replication): 25 µM
Cn1cnc(Cn2c(=O)[nH]/c(=N\c3cc4cn(C)nc4cc3Cl)n(Cc3cc(F)c(F)cc3F)c2=O)n1 — patients with adverse event (human, mild renal impairment; oral, 375 mg, treatment-related dry mouth, Mild severity): 12.5%
Cc1[nH]c2c(c1C(=O)NC(C)c1cnn(-c3ccccc3)c1C)C(=O)CCC2 (centres unmarked) — remaining activity (Lassa mammarenavirus; viral replication; Huh-7; 10 µM, 72 h): 55%
N[C@@H](CCCCNC(=O)OCc1ccc([N+](=O)[O-])cc1)C(=O)N1CCCC1 — inhibition (rep main protease; viral replication, mKate2 reporter; SARS-CoV-2; 20 µM): -0.746%
Cc1ccc(Nc2ccnc(N3CCCC3C(=O)NCCCc3ccccc3)n2)cc1 (centres unmarked) — maximum response (SARS-CoV-2; cytopathic effect; USA_WA1/2020; round 1, 5-point): 36.1%
CC(=O)Oc1cc2c(cc1NC(=O)c1ccc(C(C)(C)C)cc1)CCCCC2 — EC90 (Chikungunya virus; viral replication; NHDF): 2.8 µM
Oc1ccccc1-c1nc(-c2cccs2)c(-c2cccs2)[nH]1 — efficacy (SARS-CoV-2; cytopathic effect; USA_WA1/2020; round 1, 5-point): 52.7%
CCSc1ncc(CN2CCN(c3nc(C)ncc3C)CC2)cn1 — remaining activity (Lassa mammarenavirus; viral replication; Huh-7; 10 µM, 72 h): 60%
Nc1ncnc2c([C@@H]3N[C@H](CO)[C@@H](O)[C@H]3O)c[nH]c12 — viral RNA copies (Marburg virus; HeLa, Musoke; 3.1 µM, 1 h): 1.42e+07 copies/mL
O=C(N[C@H]1CN2CCC1CC2)c1cc2cccc(Cl)c2s1 — EC50 (SARS-CoV-2; viral replication, high-content imaging screen; BetaCov/Belgium/GHB-03021/2020; cell-based): > 100 µM
CN(C)c1ccc(-c2nc(-c3cccs3)c(-c3cccs3)[nH]2)cc1 — efficacy (SARS-CoV-2; cytopathic effect; USA_WA1/2020; retest, 8-point, duplicates): 40.6%
CC(C)Oc1cccc2c1c(NC(=O)c1ccn(C)c(=O)c1)nn2-c1ccc(F)cc1 — remaining activity (Lassa mammarenavirus; viral replication; Huh-7; 10 µM, 72 h): 13%
COc1cc2c(N3CCN(C(=O)Nc4ccc(OC(C)C)cc4)CC3)ncnc2cc1OCCCN1CCCCC1 — EC50 (SARS-CoV-2; viral replication, GFP plate reader screen; cell-based): > 100 µM
O=C(CCc1ccc(CC2CCN(Cc3c[nH]c4ccccc34)CC2)cc1)N1CCCC1 — maximum response (SARS-CoV-2; cytopathic effect; USA_WA1/2020; round 2, 5-point): 31.8%
OC(CNCC(O)C1CCc2cc(F)ccc2O1)C1CCc2cc(F)ccc2O1 (centres unmarked) — EC50 (SARS-CoV-2; viral replication, high-content imaging screen; cell-based): > 100 µM
Cc1nc2n(n1)CC(=O)N[C@@H](C(C)C)CN(C(=O)c1cn[nH]c1)CC(=O)N[C@@H](CC(C)C)c1nc(cs1)C(=O)N[C@H]2Cc1ccccc1 — remaining activity (Lassa mammarenavirus; viral replication; Huh-7; 10 µM, 72 h): 92%

A few entries again:
O=C(O)CCC(=O)C(=O)O — inhibition (rep main protease; reporter gene (mKate2), inhibitor; 20 µM): -0.263%
Nc1ncnc2c([C@@H]3N[C@H](CO)[C@@H](O)[C@H]3O)c[nH]c12 — viral RNA copies (Marburg virus; HeLa, Musoke; 3.1 µM, 1 h): 1.42e+07 copies/mL
Cc1ccc(Nc2ccnc(N3CCCC3C(=O)NCCCc3ccccc3)n2)cc1 (centres unmarked) — maximum response (SARS-CoV-2; cytopathic effect; USA_WA1/2020; round 1, 5-point): 36.1%
OCCN1CCN(CC/C=C2/c3ccccc3Sc3ccc(Cl)cc32)CC1 — EC50 (SARS-CoV-2; viral replication, high-content imaging screen; BetaCov/Belgium/GHB-03021/2020; cell-based): > 100 µM
